Results gathered from unrelated publications.
Every numbered part comes from another study and shows a few of its results, in no order. Positions count from the first letter of the parent shown.

Block 1
Target: Sal-like protein 4, full length isoform A (SALL4, Homo sapiens, UniProt Q9UJQ4, residues 1-1053)
UniProt Q9UJQ4, sequence (whole entry, looked up): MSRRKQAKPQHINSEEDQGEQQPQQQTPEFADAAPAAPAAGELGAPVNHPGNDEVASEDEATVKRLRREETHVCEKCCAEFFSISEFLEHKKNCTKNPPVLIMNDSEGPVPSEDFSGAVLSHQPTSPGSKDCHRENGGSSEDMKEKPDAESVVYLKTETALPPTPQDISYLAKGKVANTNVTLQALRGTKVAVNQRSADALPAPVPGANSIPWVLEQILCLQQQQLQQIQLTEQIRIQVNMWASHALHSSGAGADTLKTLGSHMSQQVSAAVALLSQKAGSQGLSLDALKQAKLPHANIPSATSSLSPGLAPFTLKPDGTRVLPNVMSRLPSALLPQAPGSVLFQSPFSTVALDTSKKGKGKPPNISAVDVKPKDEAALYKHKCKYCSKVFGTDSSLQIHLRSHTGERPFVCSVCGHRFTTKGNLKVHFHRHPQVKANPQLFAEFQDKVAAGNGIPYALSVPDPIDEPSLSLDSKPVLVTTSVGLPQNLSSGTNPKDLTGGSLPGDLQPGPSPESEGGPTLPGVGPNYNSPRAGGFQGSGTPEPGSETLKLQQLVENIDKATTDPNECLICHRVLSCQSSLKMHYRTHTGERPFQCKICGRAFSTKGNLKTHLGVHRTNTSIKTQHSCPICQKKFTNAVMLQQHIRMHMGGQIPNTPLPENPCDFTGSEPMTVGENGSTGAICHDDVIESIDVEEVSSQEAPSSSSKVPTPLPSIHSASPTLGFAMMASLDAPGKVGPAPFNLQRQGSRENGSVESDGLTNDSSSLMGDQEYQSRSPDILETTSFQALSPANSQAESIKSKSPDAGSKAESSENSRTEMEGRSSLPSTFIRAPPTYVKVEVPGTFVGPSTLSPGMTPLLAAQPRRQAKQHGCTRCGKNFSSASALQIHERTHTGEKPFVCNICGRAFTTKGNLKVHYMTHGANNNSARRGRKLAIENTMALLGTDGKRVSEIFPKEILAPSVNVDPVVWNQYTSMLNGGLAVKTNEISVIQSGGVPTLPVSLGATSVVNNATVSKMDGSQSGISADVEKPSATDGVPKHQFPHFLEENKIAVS
Method: universal PBM
Molecule type: double-stranded DNA, one strand shown
Matrix: in vitro
Tested at: 600 nM
Setting: 8-mer, flanks averaged, mean of replicates
Reading: higher = stronger binding
The E-score of `ATATTTGA` is reported as 0.376.
`ACTCCTTG` gave an E-score of -0.141.
`AGCGTTGA` has an E-score of -0.0727.
The E-score of `CTGAAATA` is reported as 0.322.
For `ACGACACT`, the E-score was -0.107.
The E-score of `GTAGGCTA` is reported as -0.0407.
`ATCTACTG` gave an E-score of 0.162.
For `GAGACAAA`, the E-score was 0.0394.
`GGACCTCA` has an E-score of -0.199.

Block 2
Target: RNA binding protein fox-1 homolog 2, RRM domain, GST-SBP tag (RBFOX2, Homo sapiens, UniProt O43251-10, residues 100-194)
Method: RNA Bind-n-Seq
Molecule type: RNA
Matrix: in vitro
Tested at: 365 nM
Setting: natural RNA segment, single round, ends assumed
Reference: no-protein control
Reading: higher = stronger binding
Constant ends, left off below: GGGAGUUCUACAGUCCGACGAUC … UGGAAUUCUCGGGUGCCAA
Target sequence (chain): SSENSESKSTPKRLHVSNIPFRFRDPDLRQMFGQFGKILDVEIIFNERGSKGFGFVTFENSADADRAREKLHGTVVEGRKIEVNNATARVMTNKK
For `CCAGUUAGAGCCCCUGGAAGUCCUCUUUCAGUUAGUGGCAAGCCACAUAUCCUGGAUCACAAAGCAAAGAAGAUGAACAGGUCCAGACACUGAGGCAAAUGGUACCUCAU`, “RBNS enrichment (R)” read 0.433.
Under “RBNS enrichment (R)”, `UUUCCCCUCGCCCUAGGGCUCCCUUGCCGCCCUCCUGCAGUAUUUAUGGCCUCGUCCUCCCCACCUAGGCCACGUGUGAGCUGCUCCUGUCUCUGUCUUAUUGCAGCUCC` is recorded as 0.871.
`UAUCCUGGGUAGGGUGAAAACCCUCAAGUAGUAUUUUUAUGAGCCUGGCAUGGUGAUAUAACUGAAAUCCCUGCACUUGGGAGGGUCACAAGUUUGAGGACCACCUUGGU` — result for “RBNS enrichment (R)”: 1.76.
`GACUCUUAUCCAGAGGGCUCAGAGACAGAGUGUUCUUUCAUUUGUACCGCCCUCUCAGUUCAACUUUGCUCACUCAGGUUUCCACUUGGAAGACAUCUCCACAAGUCAGA`: “RBNS enrichment (R)” 0.356.
For `UGCUCCUUCUACCUACCGGUCAGUGCAUUCAGAAGUGGACAGCUCCCGGAAGGCCGAGUUCUGGUAUUGCUGAGGUUGCCCUGACAUAGCUUUCCAUGUAUCCUGUUAUU`, “RBNS enrichment (R)” read 0.445.
For `UCCAAGCCUGAAAAGGUCCAGGUGUCUAAGCUCUUCUCUGACUGCAACGAGUUGAAUUCUAAUCCUCACAGGAUGGAUGCCAGUGUCGGCACUUUCUUAAUUAUGAGUAU`, “RBNS enrichment (R)” read 0.426.
For `CUUUAAAAUGAGAAUCUGGUGUUACUGUAUUUUAUCGUUUUCAAUAAAACUUCUUAAGUGUUUUGGACUUUUGAGAUAUUUGUAUUACUCCACUUAAAUAAUGAAAUCAG`, “RBNS enrichment (R)” read 0.934.

Block 3
Target: CCNB3, cyclin fold, Cln2 fusion (human)
Method: yeast growth competition, sequencing
Matrix: yeast
Setting: weak parent motif
Reference: not given
Reading: higher = stronger binding
Parent: PKN2 docking peptide (human); VSAVQKLDFSDTM
`VSATQKLDFSDTM [V4T]` — result for “normalised enrichment score”: -0.0893.
Under “normalised enrichment score”, `VIAVQKLDFSDTM [S2I]` is recorded as 0.18.
`VSAVQKLDFADTM [S10A]` — result for “normalised enrichment score”: 0.0447.
Under “normalised enrichment score”, `VFAVQKLDFSDTM [S2F]` is recorded as 0.317.
`VSIVQKLDFSDTM [A3I]`: “normalised enrichment score” 0.281.

Mixed results
`PhoQ, residues 284 288 289 292 302 303 SLANIV` has a fold induction of 7.93 (PhoP, residues 12 14 15 18 19 SMASL (Escherichia coli, UniProt P23836); Sort-seq, measured: YFP reporter; E. coli; PhoQ-PhoP variant library, together with: 10 µM Mg2+; reference: high Mg2+ state, higher = stronger signaling).

Repeated from above (block 1):
`AGCGTTGA` has an E-score of -0.0727.
The E-score of `CTGAAATA` is reported as 0.322.
For `ACGACACT`, the E-score was -0.107.
